Assay results gathered from unrelated publications.

CC#CC(=O)N[C@H]1CCCN(c2c(F)cc(C(N)=O)c3[nH]c(C)c(C)c23)C1 — result for “subjects with adverse events”: 33.3% (healthy volunteers; oral, 10 mg once daily, 14 days).
For CC(C)c1nc(N(C)S(C)(=O)=O)nc(-c2ccc(F)cc2)c1/C=C/[C@@H](O)C[C@@H](O)CC(=O)O, “subjects with adverse event” read 4.5% (refers to: oral herpes; healthy men; dose not given, 8 days, treatment-emergent, crossover trial).
O=C(Nc1cnccc1Cl)N1CCN(Cc2ccc3c(c2)OC(F)(F)O3)CC1 — result for “subjects with adverse events”: 100% (multiple ascending dose; young women; 100 mg, at least 1 treatment-emergent event).
Under “subjects with nausea”, Cn1cc(Nc2nc(N)nc(-c3cccc(-n4ccc5cc(C6CC6)cc(F)c5c4=O)c3CO)n2)cn1 is recorded as 1% (healthy subjects; oral, 300 mg tablet, fed high-fat breakfast).
O=C(O)CCC(=O)O.[2H]C([2H])([2H])Oc1cc(C)c2[nH]ccc2c1CN1CC[C@@H](C2CC2)C[C@H]1c1ccc(C(=O)O)cc1: “subjects with any TEAE” 33.3% (healthy Chinese subjects; 100 mg, single ascending dose).
Under “subjects with adverse events”, C=CC(=O)NC1CCN(c2ncc3ncnc(Nc4ccc(Oc5ccc6c(c5)ncn6C)c(C)c4)c3n2)CC1 is recorded as 88% (healthy male volunteers; oral, 60 mg, 2 weeks).
For COc1c(N2C[C@@H]3CCCN[C@@H]3C2)c(F)cc2c(=O)c(C(=O)O)cn(C3CC3)c12, “subjects feeling hot” read 1% (healthy volunteers; 400 mg).
NCCONC(=O)[C@@H]1CC[C@@H]2CN1C(=O)N2OS(=O)(=O)O: “subjects with serious adverse events” 0% (healthy Chinese male subjects; intravenous, 2 g).
Under “subjects with adverse events”, CC[C@H](C)[C@H](NC(=O)[C@H](Cc1ccccc1)NC(=O)[C@H](CCC(=O)O)NC(=O)[C@H](CCCCNC(=O)COCCOCCNC(=O)COCCOCCNC(=O)CC[C@H](NC(=O)CCCCCCCCCCCCCCCCC(=O)O)C(=O)O)NC(=O)[C@H](C)NC(=O)[C@H](C)NC(=O)[C@H](CCC(N)=O)NC(=O)CNC(=O)[C@H](CCC(=O)O)NC(=O)[C@H](CC(C)C)NC(=O)[C@H](Cc1ccc(O)cc1)NC(=O)[C@H](CO)NC(=O)[C@H](CO)NC(=O)[C@@H](NC(=O)[C@H](CC(=O)O)NC(=O)[C@H](CO)NC(=O)[C@@H](NC(=O)[C@H](Cc1ccccc1)NC(=O)[C@@H](NC(=O)CNC(=O)[C@H](CCC(=O)O)NC(=O)C(C)(C)NC(=O)[C@@H](N)Cc1cnc[nH]1)[C@@H](C)O)[C@@H](C)O)C(C)C)C(=O)N[C@@H](C)C(=O)N[C@@H](Cc1c[nH]c2ccccc12)C(=O)N[C@@H](CC(C)C)C(=O)N[C@H](C(=O)N[C@@H](CCCNC(=N)N)C(=O)NCC(=O)N[C@@H](CCCNC(=N)N)C(=O)NCC(=O)O)C(C)C is recorded as 37.5% (Caucasian subjects; 1.0 mg, metabolism and nutrition disorders).
C[C@H]1CNCCCN1S(=O)(=O)c1cccc2cncc(F)c12: “subjects with any adverse event” 100% (healthy adult men; ocular, 1 drop per eye twice daily, 8 days, adverse event).
Cc1nc2ccc(F)cc2n1-c1nc(N)c(F)c(Nc2ccc(C(F)(F)F)cc2)n1: “subjects with related TEAE” 96.6% (leiomyosarcoma patients; dose not given, together with: dacarbazine).
Under “subjects with adverse event”, CC(C)n1c(Nc2cccnc2)nc2cnc(Nc3ccc(N4CCN(C)CC4)cc3)nc21 is recorded as 7.1% (refers to: hemoglobin increased; healthy male subjects; oral, 100 mg, study, together with: gemfibrozil).
CC[C@H](C)[C@H](NC(=O)[C@H](Cc1ccccc1)NC(=O)[C@H](CCC(=O)O)NC(=O)[C@H](CCCCNC(=O)COCCOCCNC(=O)COCCOCCNC(=O)CC[C@H](NC(=O)CCCCCCCCCCCCCCCCC(=O)O)C(=O)O)NC(=O)[C@H](C)NC(=O)[C@H](C)NC(=O)[C@H](CCC(N)=O)NC(=O)CNC(=O)[C@H](CCC(=O)O)NC(=O)[C@H](CC(C)C)NC(=O)[C@H](Cc1ccc(O)cc1)NC(=O)[C@H](CO)NC(=O)[C@H](CO)NC(=O)[C@@H](NC(=O)[C@H](CC(=O)O)NC(=O)[C@H](CO)NC(=O)[C@@H](NC(=O)[C@H](Cc1ccccc1)NC(=O)[C@@H](NC(=O)CNC(=O)[C@H](CCC(=O)O)NC(=O)C(C)(C)NC(=O)[C@@H](N)Cc1cnc[nH]1)[C@@H](C)O)[C@@H](C)O)C(C)C)C(=O)N[C@@H](C)C(=O)N[C@@H](Cc1c[nH]c2ccccc12)C(=O)N[C@@H](CC(C)C)C(=O)N[C@H](C(=O)N[C@@H](CCCNC(=N)N)C(=O)NCC(=O)N[C@@H](CCCNC(=N)N)C(=O)NCC(=O)O)C(C)C: “subjects with discontinuation AEs” 6.7% (type 2 diabetes patients; dose not given).
Cc1c(Cl)c(C)[n+]([O-])c(Cl)c1-c1noc(-c2cc(O)c(O)c([N+](=O)[O-])c2)n1: “subjects with any serious TEAE” 0% (healthy Caucasian subjects; oral, 25 mg).
Under “subjects with adverse event”, C[C@H]1O[C@@H](O[C@H]2[C@@H](O)C[C@H](O[C@H]3[C@@H](O)C[C@H](O[C@H]4CC[C@@]5(C)[C@H](CC[C@@H]6[C@@H]5C[C@@H](O)[C@]5(C)[C@@H](C7=CC(=O)OC7)CC[C@]65O)C4)O[C@@H]3C)O[C@@H]2C)C[C@H](O)[C@@H]1O is recorded as 0% (refers to: oropharyngeal pain; healthy men; oral, dose not given, 8 days, treatment-emergent, crossover trial).

Some of these lines once more:
NCCONC(=O)[C@@H]1CC[C@@H]2CN1C(=O)N2OS(=O)(=O)O: “subjects with serious adverse events” 0% (healthy Chinese male subjects; intravenous, 2 g).
